Experimental data pooled from the literature.
Every numbered part comes from another study and shows a few of its results, in no order.

Block 1 — method: RNA Bind-n-Seq; form: RNA; medium: in vitro; tested at: 200 nM; setting: whole 134-nt RNA, ends assumed; with: 150 mM KCl; reference: input library; reading: higher = stronger binding; quantity: log2 enrichment
Target: Ras GTPase-activating protein-binding protein 1, full length (G3BP1, Homo sapiens, UniProt Q13283)
Chain of UniProt Q13283 (whole entry, looked up): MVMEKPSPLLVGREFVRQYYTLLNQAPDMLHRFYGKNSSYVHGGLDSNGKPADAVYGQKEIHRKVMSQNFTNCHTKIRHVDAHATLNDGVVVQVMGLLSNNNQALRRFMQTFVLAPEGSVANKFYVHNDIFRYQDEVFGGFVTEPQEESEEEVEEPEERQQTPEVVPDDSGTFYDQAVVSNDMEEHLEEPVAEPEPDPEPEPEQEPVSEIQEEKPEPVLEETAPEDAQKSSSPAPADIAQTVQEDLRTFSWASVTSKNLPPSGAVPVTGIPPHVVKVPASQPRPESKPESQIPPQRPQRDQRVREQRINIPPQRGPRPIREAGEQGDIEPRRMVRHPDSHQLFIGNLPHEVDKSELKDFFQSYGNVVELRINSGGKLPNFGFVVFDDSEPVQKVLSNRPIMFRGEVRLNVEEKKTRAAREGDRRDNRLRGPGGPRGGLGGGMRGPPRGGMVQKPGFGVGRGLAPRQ
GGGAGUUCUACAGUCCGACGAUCCACAGACAACACGCACCCACACAGACACAGAGGGAAGGGGUUGGGAUGGGGACAGGGUGCACAGCAGGGCGGGGUAGGCCCCCAGCCCCUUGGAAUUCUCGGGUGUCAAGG: 1.83
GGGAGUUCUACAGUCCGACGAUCAAGUCCUGUGCUACACAUCGUAUGUACCGAAUCGGAAAAAAAGGAAAAAAAGGUGGAAAGUAUUAUGUUACGCCGUUCGGAUCUGCACUUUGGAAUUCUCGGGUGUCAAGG: -1.17
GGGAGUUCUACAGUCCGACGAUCUAACUUUAGAGGAGGAUCUGAUGGAUAUGGCAGUGGACGUGGAUUUGGGGAUGGCUAUAAUGGGUAUGGAGGAGGACAUGGAGGUGGCAAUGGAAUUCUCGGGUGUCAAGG: 0.408
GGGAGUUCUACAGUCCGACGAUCCACAGACAACAAAAACCCACACAGACACAGAGGGAAGGGGUUGGGAUGGGGACAGGGUGCACAGCAGGGCGGGGUAGGACCCCAGCCCCUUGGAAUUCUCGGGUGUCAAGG: 1.85
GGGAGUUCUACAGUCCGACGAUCAAGUCCUGUGCUACACAUCGUAUGUACCGAAUCGGGUUUUUUUGGGAAAGGGAGGGAAAGUAUUAUGUUACGCCGUUCGGAUCUGCACUUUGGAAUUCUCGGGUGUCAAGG: 0.194
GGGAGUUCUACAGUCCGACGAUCCAAGUCCUGUGCUACACAUCGUAUGUACCGAAUCGGGGAAGGGAAGGGGAAGGGGAAAGUAUUAUGUUACGCCGUUCGGAUCUGCACUUCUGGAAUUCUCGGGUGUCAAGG: 1.09
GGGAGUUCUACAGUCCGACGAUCUAGGAGGUGGAUUUUGUUUAUUUUUUUAGCUCAUUUCCAGGGGUGGGAAUUUUUUUUUAAUAUGUGUCAUGAAUAAAGUUGUUUUUGAAAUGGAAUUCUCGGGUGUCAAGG: -0.456
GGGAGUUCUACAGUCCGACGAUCUGGGAGGUGGAUUUUGUUUAUUAUUUUAGCUCAUUUCCAGGGGUGGGAAUUUUUUUUUAAUAUGUGUCAUGAAUAAAGUUGUUUUUGAAAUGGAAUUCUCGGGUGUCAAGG: 0.226
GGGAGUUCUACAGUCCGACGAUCGUCCUGUGCUACACAUCGUAUGUACCGAAUCGGUUUUUUUGGUUUUUGGAAAAAAAGGAAAGUAUUAUGUUACGCCGUUCGGAUCUGCACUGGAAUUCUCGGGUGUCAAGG: -1.11
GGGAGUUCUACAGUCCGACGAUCCUCAAGUCCUGUGCUACACAUCGUAUGUACCGAAUCGGGGCGGCGGGGCGGGGAAAGUAUUAUGUUACGCCGUUCGGAUCUGCACUUCCAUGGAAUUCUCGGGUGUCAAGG: 0.842
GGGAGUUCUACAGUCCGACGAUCCUGUGCUACACAUCGUAUGUACCGAAUCGGGAAAAAAAGGAAAAAAAGGGAAAAAAAGGGGAAAGUAUUAUGUUACGCCGUUCGGAUCUGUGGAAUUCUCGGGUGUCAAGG: -0.901
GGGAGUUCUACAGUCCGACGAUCGUCCUGUGCUACACAUCGUAUGUACCGAAUCGGGAAAAAGGGAAAAAGGGGAAAAAGGGAAAGUAUUAUGUUACGCCGUUCGGAUCUGCAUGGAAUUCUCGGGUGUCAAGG: -0.253

Block 2 — method: protein-binding microarray; form: double-stranded DNA, one strand shown; medium: in vitro; tested at: 2540 nM top; setting: 60-bp whole probe; with: salmon DNA 0.4 mg/ml; reference: random background probes; reading: higher = stronger binding; quantity: fitted relative affinity; shared flanks, not repeated: GCCTAGCAC … GTCTTGATTCGCTTGACGCTGCTG
Target: Interferon regulatory factor 3, full length, phosphomimetic (IRF3, Homo sapiens, UniProt Q14653, residues 1-427, S386D/S396D/S398D/S402D/T404D/S405D)
Target sequence (chain): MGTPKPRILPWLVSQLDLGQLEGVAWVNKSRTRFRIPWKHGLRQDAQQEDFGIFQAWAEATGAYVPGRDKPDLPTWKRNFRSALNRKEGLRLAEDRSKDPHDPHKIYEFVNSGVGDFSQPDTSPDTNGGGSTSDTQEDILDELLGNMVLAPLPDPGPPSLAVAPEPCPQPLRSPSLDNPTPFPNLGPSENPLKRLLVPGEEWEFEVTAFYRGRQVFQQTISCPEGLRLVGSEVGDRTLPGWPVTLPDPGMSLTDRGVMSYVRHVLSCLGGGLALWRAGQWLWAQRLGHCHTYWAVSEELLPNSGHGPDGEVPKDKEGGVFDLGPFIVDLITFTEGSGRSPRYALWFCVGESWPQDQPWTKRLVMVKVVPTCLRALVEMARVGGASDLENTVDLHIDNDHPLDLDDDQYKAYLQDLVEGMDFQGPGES
TTCTCTCTGGCCCTCCTGAGGTGCTAG: 0.647 z-score
TTAGGTATCGACATTGGGTTAGTGCTA: 0.354 z-score
GGCGATTTCAGTTTCGAGACGTGCTAG: 4.58 z-score
TCCTCTCTCTTTCCACTTGTGTGCTAG: 1.99 z-score
GTCGGTTTCGGTTTCGGGACGTGCTAG: 11.8 z-score
TTGGGTTCCCTTTTCCTTTAGTGCTAG: 6.53 z-score
GACGATTTCGGTTATCGAGACGTGCTA: 4.15 z-score
GACGGTATCGGGTGTCGGGACGTGCTA: 1.1 z-score
TCATTTTTACCTGTGGTACTGTGCTAG: 1.37 z-score
GACGATCTAAGACTGGAGACGTGCTAG: -0.0147 z-score
GACGATTTGAGTCTCGAGACGTGCTAG: 0.142 z-score
AGCCTTATCCCTAATCTCAGCGTGCTA: 0.716 z-score
TTAGGTATCCTTTTCCGTTAGTGCTAG: 7.58 z-score
GACGCTATCAGACTGGAGACGTGCTAG: -0.107 z-score
TTAGATATCGGGTATCGTTTAGTGCTA: 0.54 z-score

Block 3 — method: RNA Bind-n-Seq; form: RNA; medium: in vitro; tested at: 365 nM; reference: no-protein control; reading: higher = stronger binding; quantity: RBNS enrichment (R)
Target: RNA binding protein fox-1 homolog 2, RRM domain, GST-SBP tag (RBFOX2, Homo sapiens, UniProt O43251-10, residues 100-194)
Setting: natural RNA segment, single round, ends assumed
Target sequence (chain): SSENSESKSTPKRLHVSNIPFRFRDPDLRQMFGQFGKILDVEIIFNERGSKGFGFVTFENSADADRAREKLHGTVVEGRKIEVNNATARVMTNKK
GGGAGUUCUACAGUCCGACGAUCAUACUUUUUAGAAAAGGAGCAUCUGGUUAUGCAUAAAGCAGAGCUAAAACUAAAUUUCUUUCAUGUCCUCCCUACUUCCUCAGUGUCAAUCAGAUUAAAGUGUGUAAUCCUGGAAUUCUCGGGUGCCAA: 0.594
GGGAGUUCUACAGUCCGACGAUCUGAGCCUCACAGUAACCCUGUAAAGUUAGUAGAGCUUGUUCUUGUAUUGUGACCUUUUUUAAAAAAAAGGAACUGAGGUUCAGAAUGAUUAAGGGCCUGGCCCCCAGGGUUGGAAUUCUCGGGUGCCAA: 0.999
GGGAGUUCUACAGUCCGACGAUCCUGUCAAGAGGGUGGGUCCCCAUCCCCGUGUGUGGAAAAGAGACAGUGUGGCUUGCUGCCAGGCUCAGGCCAGGUCUGGACAGCUCUCACUCUCCUCAAGCCAGGACUACUGGAAUUCUCGGGUGCCAA: 0.196
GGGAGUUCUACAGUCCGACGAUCAACUGUGUCCACCCUCCCUGGUCCCUACCCCCAAGUCACAGGUGACUCAGCAGUGACCCUGUGUGCCAGGCCAGAUCCAAACUGAGAGGGAAGGUGUCGUUUUUACACUGUGGAAUUCUCGGGUGCCAA: 0.303
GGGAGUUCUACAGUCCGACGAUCUGGAAAGACAUGCACUUUUUAGUUGACUAAUUCUUCCUCCCAUUCCCCUCUACUUGCGAGUUAUGGAAUUUCUAUUCCAUAACUGAAGUCUUUAUGAUAACCUAAUUUUUUGGAAUUCUCGGGUGCCAA: 1.03
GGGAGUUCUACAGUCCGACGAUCUCCUGGGCACCUCCUCUUUGCCUCCCUCCUGCCCCUUUCCUGCUGGUGGGGGCAGAUCCUGCACACACAGACACAGCGUCUGCCCCCGAGCCAUUCCCUGGAGACCCUGGUGGAAUUCUCGGGUGCCAA: 0.875
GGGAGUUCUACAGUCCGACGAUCUGGAACUAAACAGAACAACCAUUUACCCCUCCUUUUCAAACUAGAGAAUAAAGAUUUGGUUUUAGAACUGGUGGCUGGGGAGUGUUACUUUUUCUGGGGGAGCUGCGACAUGGAAUUCUCGGGUGCCAA: 0.594
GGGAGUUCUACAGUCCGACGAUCAAGUGAAAAGUCCAGUGGUAUUGGCAUUGGCAGCAGGUGAGCAAUUUCACCCAGUGUCUUCUGCCUCCCUCUGCGUUGGUAUCUGCUACAUCCCAGGCCACCACCUCCGAUGGAAUUCUCGGGUGCCAA: 0.259
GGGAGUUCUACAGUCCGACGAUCGAAUGGCAACAGGUUUGCUGGGGCAGAGGCACUGCCUAAGUGGGAGCAUGCACGUGAAAAUAGAAAGGUAAUUUAACAACACACAGACACCCAGAGACUUGGUCUCUGCAUGGAAUUCUCGGGUGCCAA: 20.7
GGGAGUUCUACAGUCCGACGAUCCAUCACUGGAACCCGCACUAAACAAGGACCUUUGGACCAGACAAGAAGUCUUCCCUCAACUACGUGUGAUGACCAAGUCCAAGGUUGACCAGGGACUGUCUACAGCAGCCUGGAAUUCUCGGGUGCCAA: 0.396
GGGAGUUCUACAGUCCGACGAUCUCCUGCAGGACAGCUGCACUCAGGGAUACGCCCAACACCAUGGCCAGGGUCAAAGGUGAAGAAAGCAAGCUCACUGCCUGCACACGGAGAUUGUCUUUCUGCCACAGAACUGGAAUUCUCGGGUGCCAA: 0.845
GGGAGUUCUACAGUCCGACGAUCCACCUUCAAUGACUUCUAAUUUAUAUUAUCCAUAGGUUUCUCUCCCUCCUUCUCCUUCUCACACACAACUGUCCAUACUAACAAGUUUGGUGCAUGUCUGUUCUUCUGUAUGGAAUUCUCGGGUGCCAA: 1.9

Block 4 — method: protein binding microarray; form: double-stranded DNA, one strand shown; medium: in vitro; tested at: not given; reference: not given; reading: higher = stronger binding; quantity: E-score
Target: Histone acetyltransferase KAT6A, both winged helices, GST fusion (KAT6A, Homo sapiens, UniProt Q92794, residues 1-181)
Setting: 8-mer, flanks averaged, mean of 2 arrays, mostly near background
Target sequence (chain): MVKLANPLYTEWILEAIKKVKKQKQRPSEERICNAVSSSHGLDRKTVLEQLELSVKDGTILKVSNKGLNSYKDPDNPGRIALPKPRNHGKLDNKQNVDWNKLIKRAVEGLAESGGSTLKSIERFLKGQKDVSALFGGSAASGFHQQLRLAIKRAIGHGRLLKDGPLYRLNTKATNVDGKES
CCCGGGAC: 0.271
ATGCATCC: -0.132
AAATGCGT: 0.133
CAAGCCCA: -0.181
GGGTTATA: 0.0369
AGTTAATC: -0.103
ACGTCAAG: -0.124
CTAGTCAA: -0.196
GCAATGGA: -0.0264
CGGTAGTC: 0.186
CAACGTAA: -0.203
CGCCCTTA: 0.0274
AGAGCCCA: -0.141
GGAATTCA: -0.123
CAGATGGG: -0.193
GTTTTTCA: 0.0745
GAGATTTA: -0.0776
CGGCATCA: 0.224
GAAATTGC: 0.00648
CTACCAAG: -0.165
ACCAGCGT: -0.0205
TCACTGGA: -0.093
AACGCTCC: 0.0376
CGGCCTCC: 0.178
CGCCTGAA: 0.0528

Excerpt of the above (block 1):
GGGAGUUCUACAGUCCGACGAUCCAAGUCCUGUGCUACACAUCGUAUGUACCGAAUCGGGGAAGGGAAGGGGAAGGGGAAAGUAUUAUGUUACGCCGUUCGGAUCUGCACUUCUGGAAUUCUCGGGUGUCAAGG: 1.09
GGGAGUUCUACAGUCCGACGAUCCUCAAGUCCUGUGCUACACAUCGUAUGUACCGAAUCGGGGCGGCGGGGCGGGGAAAGUAUUAUGUUACGCCGUUCGGAUCUGCACUUCCAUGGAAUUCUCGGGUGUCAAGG: 0.842
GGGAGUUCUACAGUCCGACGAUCGUCCUGUGCUACACAUCGUAUGUACCGAAUCGGGAAAAAGGGAAAAAGGGGAAAAAGGGAAAGUAUUAUGUUACGCCGUUCGGAUCUGCAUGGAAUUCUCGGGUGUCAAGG: -0.253
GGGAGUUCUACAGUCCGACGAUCUAACUUUAGAGGAGGAUCUGAUGGAUAUGGCAGUGGACGUGGAUUUGGGGAUGGCUAUAAUGGGUAUGGAGGAGGACAUGGAGGUGGCAAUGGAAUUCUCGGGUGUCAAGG: 0.408
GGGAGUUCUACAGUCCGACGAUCUAGGAGGUGGAUUUUGUUUAUUUUUUUAGCUCAUUUCCAGGGGUGGGAAUUUUUUUUUAAUAUGUGUCAUGAAUAAAGUUGUUUUUGAAAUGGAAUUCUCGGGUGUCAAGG: -0.456
